Assay results of several laboratories.
Parts stem from different laboratories: compare values within a part only.
UniProt P10721, sequence (whole entry, unmodified, looked up): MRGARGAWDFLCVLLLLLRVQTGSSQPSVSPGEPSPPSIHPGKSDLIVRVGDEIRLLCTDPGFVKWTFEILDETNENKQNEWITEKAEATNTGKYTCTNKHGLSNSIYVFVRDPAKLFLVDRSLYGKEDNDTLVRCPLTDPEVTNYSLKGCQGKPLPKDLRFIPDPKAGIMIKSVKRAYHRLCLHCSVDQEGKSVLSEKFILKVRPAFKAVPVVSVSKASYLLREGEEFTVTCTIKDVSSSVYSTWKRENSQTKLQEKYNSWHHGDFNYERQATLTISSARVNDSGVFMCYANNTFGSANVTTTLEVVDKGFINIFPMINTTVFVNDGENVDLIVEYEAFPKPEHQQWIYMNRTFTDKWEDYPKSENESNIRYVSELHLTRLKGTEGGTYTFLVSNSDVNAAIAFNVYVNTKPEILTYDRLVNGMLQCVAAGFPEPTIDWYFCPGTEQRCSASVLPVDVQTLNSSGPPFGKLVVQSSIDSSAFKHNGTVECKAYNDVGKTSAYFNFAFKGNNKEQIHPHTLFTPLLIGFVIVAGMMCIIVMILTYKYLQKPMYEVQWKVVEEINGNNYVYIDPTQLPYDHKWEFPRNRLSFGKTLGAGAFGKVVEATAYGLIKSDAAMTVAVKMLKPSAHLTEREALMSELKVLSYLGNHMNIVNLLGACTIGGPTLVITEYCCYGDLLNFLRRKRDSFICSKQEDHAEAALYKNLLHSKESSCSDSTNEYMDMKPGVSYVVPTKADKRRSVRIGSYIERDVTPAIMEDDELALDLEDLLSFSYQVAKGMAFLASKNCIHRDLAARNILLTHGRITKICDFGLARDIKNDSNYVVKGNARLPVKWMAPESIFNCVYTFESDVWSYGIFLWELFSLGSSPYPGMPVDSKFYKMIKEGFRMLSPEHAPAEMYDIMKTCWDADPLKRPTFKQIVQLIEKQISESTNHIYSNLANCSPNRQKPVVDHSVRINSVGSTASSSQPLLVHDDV
UniProt Q9C098, sequence (whole entry, looked up): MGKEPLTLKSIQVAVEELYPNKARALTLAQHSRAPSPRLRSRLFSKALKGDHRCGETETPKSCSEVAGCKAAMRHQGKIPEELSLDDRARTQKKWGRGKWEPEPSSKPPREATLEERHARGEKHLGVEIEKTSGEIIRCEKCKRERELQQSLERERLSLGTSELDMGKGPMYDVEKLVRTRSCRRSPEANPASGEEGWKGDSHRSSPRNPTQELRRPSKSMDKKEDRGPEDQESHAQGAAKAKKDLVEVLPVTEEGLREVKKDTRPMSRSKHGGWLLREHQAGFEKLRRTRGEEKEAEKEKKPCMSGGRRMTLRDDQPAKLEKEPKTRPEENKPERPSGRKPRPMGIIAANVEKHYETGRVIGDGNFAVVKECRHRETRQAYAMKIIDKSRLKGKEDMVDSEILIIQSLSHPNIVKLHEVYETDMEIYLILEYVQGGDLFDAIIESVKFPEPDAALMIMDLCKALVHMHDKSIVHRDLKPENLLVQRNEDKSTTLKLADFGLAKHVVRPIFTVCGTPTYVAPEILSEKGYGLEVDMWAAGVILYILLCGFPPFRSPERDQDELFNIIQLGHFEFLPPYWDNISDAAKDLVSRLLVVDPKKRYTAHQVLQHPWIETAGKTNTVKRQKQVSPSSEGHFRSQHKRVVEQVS
UniProt Q9H3Y6, sequence (whole entry, looked up): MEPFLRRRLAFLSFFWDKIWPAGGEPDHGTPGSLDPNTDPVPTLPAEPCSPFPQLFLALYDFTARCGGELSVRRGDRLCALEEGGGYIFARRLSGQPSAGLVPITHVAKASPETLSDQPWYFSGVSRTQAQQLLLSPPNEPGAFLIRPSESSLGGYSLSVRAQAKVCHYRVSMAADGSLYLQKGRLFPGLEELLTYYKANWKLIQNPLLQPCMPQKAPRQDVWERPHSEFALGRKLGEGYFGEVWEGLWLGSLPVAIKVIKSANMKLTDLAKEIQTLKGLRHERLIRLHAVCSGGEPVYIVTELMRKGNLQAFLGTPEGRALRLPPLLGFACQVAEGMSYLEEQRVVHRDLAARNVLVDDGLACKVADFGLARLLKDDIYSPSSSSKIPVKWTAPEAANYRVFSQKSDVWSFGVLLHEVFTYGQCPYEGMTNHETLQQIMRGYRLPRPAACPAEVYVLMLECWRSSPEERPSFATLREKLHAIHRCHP
UniProt O75676, sequence (whole entry, looked up): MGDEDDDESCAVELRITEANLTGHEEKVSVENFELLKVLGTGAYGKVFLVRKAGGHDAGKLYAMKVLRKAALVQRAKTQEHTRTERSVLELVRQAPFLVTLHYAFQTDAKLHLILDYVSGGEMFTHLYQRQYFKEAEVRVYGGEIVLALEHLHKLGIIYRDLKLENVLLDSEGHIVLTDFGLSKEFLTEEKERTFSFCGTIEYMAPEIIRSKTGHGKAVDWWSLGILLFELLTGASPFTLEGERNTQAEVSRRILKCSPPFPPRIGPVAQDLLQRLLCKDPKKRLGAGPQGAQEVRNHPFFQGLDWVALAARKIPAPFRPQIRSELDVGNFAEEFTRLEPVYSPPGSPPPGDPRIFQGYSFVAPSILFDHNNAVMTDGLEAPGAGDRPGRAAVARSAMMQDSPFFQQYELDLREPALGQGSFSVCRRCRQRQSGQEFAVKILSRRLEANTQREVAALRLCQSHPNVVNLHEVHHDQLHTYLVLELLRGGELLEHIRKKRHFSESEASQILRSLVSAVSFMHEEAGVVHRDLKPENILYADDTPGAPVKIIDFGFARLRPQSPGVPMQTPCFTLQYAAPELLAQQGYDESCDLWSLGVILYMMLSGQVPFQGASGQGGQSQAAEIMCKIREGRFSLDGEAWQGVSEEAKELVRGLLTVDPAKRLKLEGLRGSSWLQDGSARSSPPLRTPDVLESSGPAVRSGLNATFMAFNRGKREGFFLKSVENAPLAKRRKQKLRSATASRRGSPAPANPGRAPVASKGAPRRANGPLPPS
UniProt Q16584, sequence (whole entry, looked up): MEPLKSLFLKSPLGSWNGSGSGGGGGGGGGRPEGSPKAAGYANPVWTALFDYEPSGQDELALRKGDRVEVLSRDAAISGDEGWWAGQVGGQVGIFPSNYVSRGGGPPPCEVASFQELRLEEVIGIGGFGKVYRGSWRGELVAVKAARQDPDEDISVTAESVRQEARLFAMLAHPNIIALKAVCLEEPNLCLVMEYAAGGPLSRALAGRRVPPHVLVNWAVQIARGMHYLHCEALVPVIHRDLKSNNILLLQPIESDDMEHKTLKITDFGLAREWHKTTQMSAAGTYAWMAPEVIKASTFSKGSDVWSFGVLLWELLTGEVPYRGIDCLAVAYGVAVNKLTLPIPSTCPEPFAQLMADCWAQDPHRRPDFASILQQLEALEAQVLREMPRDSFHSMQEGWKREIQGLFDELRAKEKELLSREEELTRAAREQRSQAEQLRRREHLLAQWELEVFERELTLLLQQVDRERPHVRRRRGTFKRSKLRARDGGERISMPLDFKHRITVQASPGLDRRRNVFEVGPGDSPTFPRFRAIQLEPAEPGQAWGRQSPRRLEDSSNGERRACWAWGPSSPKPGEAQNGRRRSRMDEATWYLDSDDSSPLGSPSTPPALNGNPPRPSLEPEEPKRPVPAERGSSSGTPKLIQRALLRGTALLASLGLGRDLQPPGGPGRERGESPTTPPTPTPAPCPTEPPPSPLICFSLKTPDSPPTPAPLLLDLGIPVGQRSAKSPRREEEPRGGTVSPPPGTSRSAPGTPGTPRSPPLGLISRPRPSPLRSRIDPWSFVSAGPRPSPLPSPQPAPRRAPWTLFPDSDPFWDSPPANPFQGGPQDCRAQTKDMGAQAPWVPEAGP
UniProt P48729, sequence (whole entry, looked up): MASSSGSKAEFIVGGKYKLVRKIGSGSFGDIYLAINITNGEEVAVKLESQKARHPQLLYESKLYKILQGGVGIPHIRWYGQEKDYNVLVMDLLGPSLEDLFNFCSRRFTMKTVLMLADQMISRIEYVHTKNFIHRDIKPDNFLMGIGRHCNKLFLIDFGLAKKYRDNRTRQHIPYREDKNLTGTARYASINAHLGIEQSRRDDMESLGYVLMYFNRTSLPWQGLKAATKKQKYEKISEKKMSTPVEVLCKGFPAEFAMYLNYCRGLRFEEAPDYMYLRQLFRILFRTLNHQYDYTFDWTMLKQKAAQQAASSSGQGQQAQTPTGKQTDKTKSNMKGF

Series 1 — observed: enzyme activity; mode: inhibitor; tested at: 10 µM
Target: Calcium/calmodulin-dependent protein kinase type II subunit alpha (CAMK2A, Homo sapiens, UniProt Q9UQM7)
UniProt Q9UQM7, sequence (whole entry, looked up): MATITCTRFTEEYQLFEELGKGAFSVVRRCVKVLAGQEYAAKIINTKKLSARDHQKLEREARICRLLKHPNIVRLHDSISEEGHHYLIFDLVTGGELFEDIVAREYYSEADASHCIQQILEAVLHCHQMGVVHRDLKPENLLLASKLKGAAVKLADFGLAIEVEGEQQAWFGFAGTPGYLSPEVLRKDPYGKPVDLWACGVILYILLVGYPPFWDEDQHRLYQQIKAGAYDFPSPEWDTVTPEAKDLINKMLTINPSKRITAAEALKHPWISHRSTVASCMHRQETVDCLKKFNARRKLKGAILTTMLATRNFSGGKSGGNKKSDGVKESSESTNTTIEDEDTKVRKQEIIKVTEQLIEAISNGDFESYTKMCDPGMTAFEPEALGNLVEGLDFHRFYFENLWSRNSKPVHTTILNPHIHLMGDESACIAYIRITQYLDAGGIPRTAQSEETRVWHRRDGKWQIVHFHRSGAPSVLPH
| Structure (SMILES) | inhibition |
| --- | --- |
| CC(C)=C[C@H]1C[C@](C)(O)[C@@H]2[C@H]3CC[C@@H]4[C@@]5(C)CC[C@H](O[C@@H]6OC[C@H](O)[C@H](O[C@@H]7O[C@H](CO)[C@@H](O)[C@H](O)[C@H]7O)[C@H]6O[C@@H]6O[C@@H](CO)[C@H](O)[C@H]6O)C(C)(C)[C@@H]5CC[C@@]4(C)[C@@]34CO[C@@]2(C4)O1 | -7% |
| Cc1cc(O[C@@H]2O[C@H](CO)[C@@H](O)[C@H](O)[C@H]2O)c2c(c1)C(=O)c1cc(O)cc(O)c1C2=O | 5% |
| COc1cc2c(cc1O)C[C@H]1c3cc(O)c(OC)cc3CC[N+]1(C)C2 (stereo partly drawn) | 37% |
| CC(=O)O[C@H]1[C@H](O[C@H]2CC[C@]34C[C@]35CC[C@]3(C)[C@@H]([C@@]6(C)CC[C@@H](C(C)(C)O)O6)[C@@H](O)C[C@@]3(C)[C@@H]5C[C@H](O[C@@H]3O[C@H](CO)[C@@H](O)[C@H](O)[C@H]3O)[C@H]4C2(C)C)OC[C@@H](OC(C)=O)[C@@H]1O | 17% |
| CC/C(=C(/CC)c1ccc(O)cc1)c1ccc(O)cc1 | 0% |
| COc1cc(-c2oc3cc(O)cc(O)c3c(=O)c2O[C@@H]2O[C@H](CO)[C@@H](O)[C@H](O)[C@H]2O[C@@H]2O[C@@H](C)[C@H](O)[C@@H](O)[C@H]2O)ccc1O | -5% |
| COc1cc(/C=C/c2ccc(O)c(O)c2)cc(OC)c1 | 5% |
| NCC(O)c1ccc(O)c(O)c1 (racemic) | -5% |
| O=C(c1ccccc1)c1ccc2n1CCC2C(=O)O (stereo not drawn) | 8% |
| C=C[C@](C)(O)CC[C@@H]1[C@@]2(C)CCCC(C)(C)[C@@H]2CC[C@@]1(C)O | -3% |
| C[C@H](N[C@@H](CCc1ccccc1)C(=O)O)C(=O)N1CCC[C@H]1C(=O)O | -6% |
| COc1cc(-c2coc3cc(O)c(OC)c(O)c3c2=O)cc(O)c1OC | -34% |
| COc1ccc2c(C(=S)N(C)CC(=O)O)cccc2c1C(F)(F)F | 0% |

Series 2 — species: mouse; medium: microsomes or S9; tested at: 2 µM; time: 0.5 h
| Compound | remaining compound |
| --- | --- |
| CCOc1ccccc1NC(=O)N1Cc2c(sc3c2CCCC3)-n2cccc2C1c1ccc(N(C)C)cc1 (stereo not drawn) | 14.6% |
| CC1(C)CC(S(=O)(=O)CC2(C)CC(c3ccc(Br)o3)=NO2)=NO1 (stereo not drawn) | 11.7% |
| CCn1cc(S(=O)(=O)N2CCC3(CCCCO3)CC2)cn1 | 20.9% |
| CC(=O)N(c1nc(COC(=O)/C=C/c2cnn(C)c2)cs1)c1c(C)cc(C)cc1C | 0.0758% |
| OCC1O[C@@H](Oc2cc(O)cc(C3c4c(/C=C/c5ccc(O)cc5)cc(O)cc4OC3c3ccc(O)cc3)c2)C(O)[C@H](O)[C@@H]1O (stereo partly drawn) | > 99% |
| Cc1cc(C)n(-c2nc(CCNC(=O)CCn3ccc(=O)[nH]c3=O)cs2)n1 | 57.8% |
| Cc1cc(-c2cc(=O)[nH]c3nc4ccccc4n23)n(C)n1 | 87.4% |
| COc1ccc(Nc2nnc(-c3ccc(C)c(S(=O)(=O)N4CCCCC4)c3)c3ccccc23)cc1C(N)=O | 0.128% |
| CC1CCN(Cc2nc(N)nc(Nc3ccc(Cl)cc3)n2)CC1 | 34.2% |
| O=C(Nc1n[nH]c2cc(Br)ccc12)c1cc(-c2cccnc2)[nH]n1 | 47% |
| CCN(CC)CCCNc1nc(-n2nc(C)cc2C)nc2sc3c(c12)CC(C)(C)OC3 | 4.73% |
| CC(C)(C)C(=O)Nc1cc(NC(=O)C(C)(C)C)cc(C(=O)Nc2c[nH]c(=O)[nH]c2=O)c1 | 0.193% |

Series 3 — technique: competition with immobilised ligand; tested at: 1 µM
Compound: O=S(=O)(NC1CCC(c2cc(F)ccc2F)(S(=O)(=O)c2ccc(Cl)cc2)CC1)C(F)(F)F (stereo not drawn)
| target | observed | remaining binding |
| --- | --- | --- |
| TNK1 (Homo sapiens, UniProt Q13470) | cell-free assay | 98% |
| Ribosomal protein S6 kinase alpha-4, C-terminal kinase domain (RPS6KA4, Homo sapiens, UniProt O75676) | cell-free assay | 100% |
| PIK3CA (Homo sapiens, UniProt P42336, H1047Y) | cell-free assay | 100% |
| PIKFYVE (Homo sapiens, UniProt Q9Y2I7) | cell-free assay | 60% |
| KIT (Homo sapiens, UniProt P10721, A829P) | cell-free assay | 100% |
| NEK10 (Homo sapiens, UniProt Q6ZWH5) | cell-free assay | 100% |
| HIPK1 (Homo sapiens, UniProt Q86Z02) | cell-free assay | 100% |
| RAF1 (Homo sapiens, UniProt P04049) | cell-free assay | 100% |
| TNK2 (Homo sapiens, UniProt Q07912) | cell-free assay | 96% |
| KIT (Homo sapiens, UniProt P10721, T670I/V559D) | cell-free assay | 100% |
| CAMK2A (Homo sapiens, UniProt Q9UQM7) | cell-free assay | 100% |
| MAP3K11 (Homo sapiens, UniProt Q16584) | cell-free assay | 100% |
| SRMS (Homo sapiens, UniProt Q9H3Y6) | cell-free assay | 100% |
| CDKL5 (Homo sapiens, UniProt O76039) | cell-free assay | 87% |
| KIT (Homo sapiens, UniProt P10721) | cell-free assay | 100% |
| MAP4K5 (Homo sapiens, UniProt Q9Y4K4) | cell-free assay | 69% |
| NTRK2 (Homo sapiens, UniProt Q16620) | cell-free assay | 83% |
| SGK3 (Homo sapiens, UniProt Q96BR1) | cell-free assay | 89% |
| RIPK1 (Homo sapiens, UniProt Q13546) | cell-free assay | 100% |
| Ribosomal protein S6 kinase alpha-3, N-terminal kinase domain (RPS6KA3, Homo sapiens, UniProt P51812) | cell-free assay | 96% |
| EPHA5 (Homo sapiens, UniProt P54756) | cell-free assay | 100% |
| DCLK3 (Homo sapiens, UniProt Q9C098) | cell-free assay | 100% |
| CSNK1A1 (Homo sapiens, UniProt P48729) | cell-free assay | 100% |
| CILK1 (Homo sapiens, UniProt Q9UPZ9) | binding | 85% |
| PRKG1 (Homo sapiens, UniProt Q13976) | cell-free assay | 100% |

Series 4 — observed: RNA clamping; technique: fluorescence polarization; tested at: concentration not given; with: FAM-labelled poly r(AG)8 RNA
Target: Eukaryotic initiation factor 4A-III (Homo sapiens, UniProt P38919)
UniProt P38919, sequence (whole entry, looked up): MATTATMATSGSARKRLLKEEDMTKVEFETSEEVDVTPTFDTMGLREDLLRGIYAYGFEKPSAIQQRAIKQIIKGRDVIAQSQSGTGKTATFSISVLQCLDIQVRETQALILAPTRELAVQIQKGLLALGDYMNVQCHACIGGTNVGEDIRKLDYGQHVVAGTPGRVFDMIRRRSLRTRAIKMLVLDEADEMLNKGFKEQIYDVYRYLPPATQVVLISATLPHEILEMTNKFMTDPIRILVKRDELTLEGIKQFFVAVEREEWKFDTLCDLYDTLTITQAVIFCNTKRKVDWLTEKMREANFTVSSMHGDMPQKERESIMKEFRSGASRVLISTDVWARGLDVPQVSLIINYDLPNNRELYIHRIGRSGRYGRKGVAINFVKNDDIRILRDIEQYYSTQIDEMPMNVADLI
| Structure (SMILES) | fluorescence polarization change [mP] |
| --- | --- |
| COC(=O)[C@H]1C(=O)[C@@]2(NCCc3scnc3C)c3c(OC)cc(OC)cc3O[C@@]2(c2ccc(OC)cc2)[C@@H]1c1ccccc1 | 5.6 |
| C=CCOc1nc(-c2ccccc2)nc2c1[C@@H](c1ccccc1)[C@]1(c3ccc(OC)cc3)Oc3cc(OC)cc(OC)c3[C@]21O | 5.2 |
| COC(=O)/C=C/n1c(-c2ccccc2)nc2c(c1=O)[C@@H](c1ccccc1)[C@]1(c3ccc(OC)cc3)Oc3cc(OC)cc(OC)c3[C@]21O | 8.8 |
| COc1ccc([C@]23Oc4cc(OC)cc(OC)c4[C@](O)([C@H](C(=O)NCCCC(OC)OC)[C@H]2c2ccccc2)[C@H]3O)cc1 | -0.9 |
| C#CCCC1(CCOc2ccc([C@@H]3[C@@H](C(=O)N(C)OC)[C@@H](O)[C@@]4(O)c5c(OC)cc(OC)cc5O[C@@]34c3ccc(OC)cc3)cc2)N=N1 | 3.4 |
| COC(=O)[C@H]1[C@@H](O)[C@@]2(O)c3c(OC)cccc3N(C)[C@@]2(c2ccc(OC)cc2)[C@@H]1c1ccccc1 | -4.4 |
| COc1ccc([C@@]23Oc4cc(OC)cc(OC)c4[C@]2(O)c2nc(-c4ccccc4)[nH]c(=O)c2/C3=C\Cc2ccccc2)cc1 | 2.7 |
| C=CCn1c(-c2ccccc2)nc2c(c1=O)[C@@H](c1ccccc1)[C@]1(c3ccc(OC)cc3)Oc3cc(OC)cc(OC)c3[C@]21O | 3.1 |
| CONC(=O)[C@H]1[C@@H](O)[C@@]2(O)c3c(OC)cc(O)cc3O[C@@]2(c2ccc(Br)cc2)[C@@H]1c1ccccc1 | 57.6 |
| COC(=O)[C@@H]1[C@@H](c2ccccc2)[C@]2(c3ccc(OC)cc3)Oc3cc(OC)cc(OC)c3[C@@]23NC(c2ccc(C(F)(F)F)cc2)=N[C@@]13O | 0.4 |

Some of these lines once more (series 4):
| Structure (SMILES) | fluorescence polarization change [mP] |
| --- | --- |
| COC(=O)[C@H]1C(=O)[C@@]2(NCCc3scnc3C)c3c(OC)cc(OC)cc3O[C@@]2(c2ccc(OC)cc2)[C@@H]1c1ccccc1 | 5.6 |
| C=CCOc1nc(-c2ccccc2)nc2c1[C@@H](c1ccccc1)[C@]1(c3ccc(OC)cc3)Oc3cc(OC)cc(OC)c3[C@]21O | 5.2 |
| COC(=O)/C=C/n1c(-c2ccccc2)nc2c(c1=O)[C@@H](c1ccccc1)[C@]1(c3ccc(OC)cc3)Oc3cc(OC)cc(OC)c3[C@]21O | 8.8 |
| COc1ccc([C@]23Oc4cc(OC)cc(OC)c4[C@](O)([C@H](C(=O)NCCCC(OC)OC)[C@H]2c2ccccc2)[C@H]3O)cc1 | -0.9 |
| C#CCCC1(CCOc2ccc([C@@H]3[C@@H](C(=O)N(C)OC)[C@@H](O)[C@@]4(O)c5c(OC)cc(OC)cc5O[C@@]34c3ccc(OC)cc3)cc2)N=N1 | 3.4 |
| COC(=O)[C@H]1[C@@H](O)[C@@]2(O)c3c(OC)cccc3N(C)[C@@]2(c2ccc(OC)cc2)[C@@H]1c1ccccc1 | -4.4 |
| COc1ccc([C@@]23Oc4cc(OC)cc(OC)c4[C@]2(O)c2nc(-c4ccccc4)[nH]c(=O)c2/C3=C\Cc2ccccc2)cc1 | 2.7 |
| C=CCn1c(-c2ccccc2)nc2c(c1=O)[C@@H](c1ccccc1)[C@]1(c3ccc(OC)cc3)Oc3cc(OC)cc(OC)c3[C@]21O | 3.1 |
| CONC(=O)[C@H]1[C@@H](O)[C@@]2(O)c3c(OC)cc(O)cc3O[C@@]2(c2ccc(Br)cc2)[C@@H]1c1ccccc1 | 57.6 |
